Measured values pooled from the literature.
Each numbered part is a random draw from the data of one study; scales do not carry over between parts.

Series 1 — method: RNA Bind-n-Seq; form: RNA; sample: in vitro; concentration: 1 µM; notes: whole 134-nt RNA, ends assumed; with: 150 mM KCl; baseline: input library; reading: higher = stronger binding
Target: Ras GTPase-activating protein-binding protein 1, C-terminal RGG region (G3BP1, Homo sapiens, UniProt Q13283)
Chain of UniProt Q13283 (whole entry, looked up): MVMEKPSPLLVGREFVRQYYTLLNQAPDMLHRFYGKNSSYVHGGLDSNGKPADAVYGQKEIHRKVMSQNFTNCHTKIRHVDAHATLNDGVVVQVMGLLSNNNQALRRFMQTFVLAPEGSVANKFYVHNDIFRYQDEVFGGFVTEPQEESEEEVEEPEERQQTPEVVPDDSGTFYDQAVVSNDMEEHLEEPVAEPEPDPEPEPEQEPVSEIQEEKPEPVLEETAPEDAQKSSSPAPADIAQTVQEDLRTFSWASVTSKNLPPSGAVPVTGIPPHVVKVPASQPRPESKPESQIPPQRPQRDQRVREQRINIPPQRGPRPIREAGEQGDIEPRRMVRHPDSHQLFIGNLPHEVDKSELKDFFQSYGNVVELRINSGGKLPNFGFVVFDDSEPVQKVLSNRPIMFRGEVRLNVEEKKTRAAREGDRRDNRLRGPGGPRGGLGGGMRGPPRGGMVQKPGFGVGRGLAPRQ
Constant ends, left off below: GGGAGUUCUACAGUCCGACGAUC … UGGAAUUCUCGGGUGUCAAGG
Sequence | log2 enrichment
CUCAAGUCCUGUGCUACACAUCGUAUGUACCGAAUCGGGGAAGGGAAGGAAGGGAAAGUAUUAUGUUACGCCGUUCGGAUCUGCACUUCC | -0.522
UCAAGUCCUGUGCUACACAUCGUAUGUACCGAAUCGGGGAGGGGUGGGGAGGGGAAAGUAUUAUGUUACGCCGUUCGGAUCUGCACUUCC | 3.17
AAGUCCUGUGCUACACAUCGUAUGUACCGAAUCGGGUGGGAAAAAAAGGGUUUGGGAAAGUAUUAUGUUACGCCGUUCGGAUCUGCACUU | 0.692
UGUUCCUGUUGAUGAAAAUCUUUUCACUGGAGAGGAUUUGGAUGAACUAGAAGAAGAAUUAAAUACACUUGAUUUAGAAGAAUGACACCA | -1.44
UGGGAGGUGGAUUUUGUUUAUUUUUUUAGCUCAUUUCCAGGGGUGGGAAUUUUUUUUUAAUAUGUGUCAUGAAUAAAGUCGUUUUUGAAA | 3.15
ACCAUGCAGGUGGGCAUCUUUGGGAAGUGGGGCAAGGGGGGGAUAGGGAGGGGGGUAACACUUUGGGACCAGGUGGUCCCAGGUCGUUUC | 2.48
UCAAGUCCUGUGCUACACAUCGUAUGUACCGAAUCGGUUUGGAGGAAAAAAAGGAAAGUAUUAUGUUACGCCGUUCGGAUCUGCACUUCC | -1.21
AGUCCUGUGCUACACAUCGUAUGUACCGAAUCGGGGCCCCGGGGCCCCGGCCCCGGGAAAGUAUUAUGUUACGCCGUUCGGAUCUGCACU | -2.44
GCAGGAAGUAAAAACAAAUGGAAAUGCUUCGGAUAGUGGCAGGGGUGGGGGUUGCUAAGCAAAGGGUGGGAUGGGAGUGGGUAAAGAGUU | 2.01

Series 2 — method: protein-binding microarray; form: double-stranded DNA, one strand shown; sample: in vitro; concentration: 940 nM top; notes: 60-bp whole probe; with: salmon DNA 0.4 mg/ml; baseline: random background probes; reading: higher = stronger binding; constant ends, left off below: GCCTAGCAC … GTCTTGATTCGCTTGACGCTGCTG
Target: Interferon regulatory factor 5, full length, phosphomimetic (IRF5, Homo sapiens, UniProt Q13568-2, residues 1-514, S451D/S453D/S456D/S462D)
Sequence | fitted relative affinity [z-score]
TTAGGTTTCCTCCTGCTTTAGTGCTAG | 1.19
GACAAACTGAGACTGGAGACGTGCTAG | -0.195
TCAGTCATCCATCTGAAACTGTGCTAG | 0.208
TTAGGTTTCGCCTATCGGTTAGTGCTA | 8.43
TTAGATTTCAGACTGGATTCGTGCTAG | 0.0252
GACGGTTTCCTTAACCTGACGTGCTAG | 0.545
TCATTTTCATTTTCCAAACTGTGCTAG | 2.51
TCACCTTTTTTGTTGTTACTGTGCTAG | 1.47
TTAGATTTCAGTATCGCTTAGTGCTAG | 3.02
TCCCACAGTCGAAAGTCTGCGTGCTAG | 0.555
GACGGTCTCGTTCTCCTGACGTGCTAG | 2.13
TCACTTTTCAGTCCCCTACTGTGCTAG | 1.68
CTTTTTTTTTTTTTTTTTTGGTGCTAG | 1.26
AACGGACTGGGGTATCGGGACGTGCTA | 0.254
TTAGTTTTCGGTTCCGGTTAGTGCTAG | 6.05
GTAAATCTTTTTCCCTATTAGTGCTAG | 1.74
CCTTATCCCTAATCTCAGCCTGTGCTA | 1.28
GACGATCTCGGTTTCGGGACGTGCTAG | 4.39
GACGGTTTCCTTTTCCTGTCGTGCTAG | 4.06

Series 3 — method: RNA Bind-n-Seq; form: RNA; sample: in vitro; concentration: 365 nM; baseline: no-protein control; reading: higher = stronger binding
Target: RNA binding protein fox-1 homolog 2, RRM domain, GST-SBP tag (RBFOX2, Homo sapiens, UniProt O43251-10, residues 100-194)
Notes: natural RNA segment, single round, ends assumed
Constant ends, left off below: GGGAGUUCUACAGUCCGACGAUC … UGGAAUUCUCGGGUGCCAA
Target sequence (chain): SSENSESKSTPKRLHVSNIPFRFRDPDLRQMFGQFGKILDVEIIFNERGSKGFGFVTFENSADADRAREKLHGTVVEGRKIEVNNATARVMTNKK
Sequence | RBNS enrichment (R)
AGGUACUCGGCGCCCUGUGGACUGUGUGGAAACUGAUUUUUCUUUUUUCUAUACUGAAUACCCUUUGAGAUUUGUGUGGGACAUGGGUCCAUGUGGGUUUAGUGACAGAG | 0.379
AUCAACUUUUAAAAACAUUUGACUGUUUUUGUUACAUGCAUUGUAUUUCUGCUUUGUCUAUAAGAAGUGGUCAAGUCCAACUCUGUGACAACUCUUAACUUGCCUCCCUG | 0.267
UAGCCCACCUCCCAAGGCACCUGUGCCUCCACUCAGGAUGUCUUGCUCUGACUGGCUCCCCUUCCAGACUGCCUUUUCUGGCCUUUCUGGGGUUCCCUGUUGGUGCCACA | 0.562
ACCACCUUGUCUUUAAAGAUCACUUUCCUGGGCUGCAAUGUUCCAACCCAGUUGUUCCAGCUGUUCACAACCAGUGUGUGAUUUUGCUUAGUUGGUGCCCAUUCUGCACC | 0.632
CCGGUCUGUCCCGCUUGCCGGGCUUCUGUUGCAAGUCUUGGCUUAAGGAGACUUCCUGUGGGUUGCCAUGUCGCACGUCCGUUAGAUCUUGAUUUUACAGGUGAGGGUGG | 0.551
AAACAUCUGGAUAUCAAGGUGGAAAUGGCCCAUUUAAUGAUUGAUUAUAUCAUUUUGUGGAUAUAGUUAUAAUCUGAUGGGCCUGGCUGGGAGUGGAAGAAGGGAAGCCU | 0.347
AUCUUCAAUAUGAAGACAUGAGCUUUUCUCGCAGGAAAUUUUCUUUUUCACAGAACUGGUGUCAGGAAUCACUGAAGGGCUAACCGUGAUAGUCCUUGCAAGUAAGUCAA | 0.353
AGCUCUGGCAAGGGCGUCAGGGUCCUAAUCUGGAUGGGUAUUGAUCAUGUCCAACCUGCUGGAGCCCCUUCACAUGGUGGAUGAUGCCCCAUGACCCUGUAGAAAUUGAA | 1.51

Series 4 — method: protein binding microarray; form: double-stranded DNA, one strand shown; sample: in vitro; concentration: not given; baseline: not given; reading: higher = stronger binding
Target: Histone acetyltransferase KAT6A, both winged helices, GST fusion (KAT6A, Homo sapiens, UniProt Q92794, residues 1-181)
Notes: 8-mer, flanks averaged, mean of 2 arrays, mostly near background
Construct (chain): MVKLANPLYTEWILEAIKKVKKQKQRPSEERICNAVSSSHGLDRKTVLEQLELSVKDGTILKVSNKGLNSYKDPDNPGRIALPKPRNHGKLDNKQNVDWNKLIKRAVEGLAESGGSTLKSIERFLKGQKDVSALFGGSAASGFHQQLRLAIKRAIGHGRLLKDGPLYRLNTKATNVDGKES
Sequence | E-score
TCACTAGA | -0.0513
AAGGCGCG | 0.348
ATCAATCC | -0.0954
AGTGTCAT | -0.0651
GCTCGTCA | 0.0557
ACCTAGTG | -0.144
GCTCTACC | -0.0187
ACGGGAGT | 0.15
GACGTGAA | 0.0431
AGGGGGGG | -0.328
TACCTTAA | 0.00677
GCAGTCCA | -0.0751
CGCACATA | 0.129
GATAGTGC | 0.0117
GTAACTGA | -0.0197
ATCTACTA | 1.5e-05
CTGTCATA | -0.0791
AAGCTACT | -0.232
TCCGACGA | 0.0678
TGGACCAA | -0.0425

Series 5 — method: universal PBM; form: double-stranded DNA, one strand shown; sample: in vitro; concentration: not given; reading: higher = stronger binding
Target: Sal-like protein 4, full length isoform B (SALL4, Homo sapiens, UniProt Q9UJQ4-2, residues 1-616)
Notes: 8-mer, flanks averaged, mean of replicates
Sequence | E-score
CTACGCTA | 0.0247
CTACGCCC | -0.258
CCTAACCA | -0.0126
AAACGTCG | 0.00376
AAAAGCTC | -0.0636
AAGCTGCG | -0.284
CCTACAGC | -0.0864
ACAGGGTA | -0.0926
CTCGAATA | 0.0142
GGCGAAAC | -0.169
GATGTCGA | -0.00186
AGCGGACG | -0.319
ATCCCTCG | -0.139
AGCATAAG | 0.0414
TCGATACA | 0.192
CCACGCCA | -0.105
CACGGTAG | -0.133
CAACGCGG | -0.284
TAAAAGTA | 0.275
ACGCTACC | -0.206
AGTCGCAG | -0.11

A few entries again (series 3):
Sequence | RBNS enrichment (R)
AUCAACUUUUAAAAACAUUUGACUGUUUUUGUUACAUGCAUUGUAUUUCUGCUUUGUCUAUAAGAAGUGGUCAAGUCCAACUCUGUGACAACUCUUAACUUGCCUCCCUG | 0.267
ACCACCUUGUCUUUAAAGAUCACUUUCCUGGGCUGCAAUGUUCCAACCCAGUUGUUCCAGCUGUUCACAACCAGUGUGUGAUUUUGCUUAGUUGGUGCCCAUUCUGCACC | 0.632
CCGGUCUGUCCCGCUUGCCGGGCUUCUGUUGCAAGUCUUGGCUUAAGGAGACUUCCUGUGGGUUGCCAUGUCGCACGUCCGUUAGAUCUUGAUUUUACAGGUGAGGGUGG | 0.551
AGCUCUGGCAAGGGCGUCAGGGUCCUAAUCUGGAUGGGUAUUGAUCAUGUCCAACCUGCUGGAGCCCCUUCACAUGGUGGAUGAUGCCCCAUGACCCUGUAGAAAUUGAA | 1.51
UAGCCCACCUCCCAAGGCACCUGUGCCUCCACUCAGGAUGUCUUGCUCUGACUGGCUCCCCUUCCAGACUGCCUUUUCUGGCCUUUCUGGGGUUCCCUGUUGGUGCCACA | 0.562
AAACAUCUGGAUAUCAAGGUGGAAAUGGCCCAUUUAAUGAUUGAUUAUAUCAUUUUGUGGAUAUAGUUAUAAUCUGAUGGGCCUGGCUGGGAGUGGAAGAAGGGAAGCCU | 0.347
AUCUUCAAUAUGAAGACAUGAGCUUUUCUCGCAGGAAAUUUUCUUUUUCACAGAACUGGUGUCAGGAAUCACUGAAGGGCUAACCGUGAUAGUCCUUGCAAGUAAGUCAA | 0.353
AGGUACUCGGCGCCCUGUGGACUGUGUGGAAACUGAUUUUUCUUUUUUCUAUACUGAAUACCCUUUGAGAUUUGUGUGGGACAUGGGUCCAUGUGGGUUUAGUGACAGAG | 0.379
